{"data": "Published values pooled from the literature", "target": "Carbonic anhydrase 9 (CA9, Homo sapiens, UniProt Q16790)"}
{"Structure (SMILES)": "COc1cccc(/C(C)=N/NC(=O)CSc2nc3ccccc3c(=O)n2CCc2ccc(S(N)(=O)=O)cc2)c1", "test": "enzyme activity, inhibitor, stopped-flow", "Ki": "54.6 nM"}
{"Structure (SMILES)": "COCCOc1cc2ncnc(Nc3cccc(-c4cn(-c5ccc(S(N)(=O)=O)cc5)nn4)c3)c2cc1OCCOC", "test": "enzyme activity, inhibitor, stopped-flow", "Ki": "18.5 nM"}
{"Structure (SMILES)": "COc1ccc(NC(=O)CN2C(=O)/C(=N\\Nc3ccc(S(N)(=O)=O)cc3)c3ccccc32)cc1", "Ki": "598 nM"}
{"Structure (SMILES)": "COCCOc1cc2ncnc(Nc3cccc(-c4cn([C@H]5C[C@H](n6cc(C)c(=O)[nH]c6=O)O[C@@H]5CO)nn4)c3)c2cc1OCCOC", "test": "enzyme activity, inhibitor, stopped-flow", "Ki": "1440 nM"}
{"Structure (SMILES)": "NS(=O)(=O)c1ccc(N/N=C2\\C(=O)N(CC(=O)Nc3ccccc3Cl)c3ccccc32)cc1", "Ki": "673 nM"}
{"Structure (SMILES)": "COCCOc1cc2ncnc(Nc3cccc(-c4cn(-c5cccc(S(N)(=O)=O)c5)nn4)c3)c2cc1OCCOC", "test": "enzyme activity, inhibitor, stopped-flow", "Ki": "18.1 nM"}
{"Structure (SMILES)": "NS(=O)(=O)c1ccc(N/N=C2\\C(=O)N(CC(=O)Nc3ccccc3Br)c3ccccc32)cc1", "test": "enzyme activity, inhibitor", "conditions": "with preincubation", "Ki": "401 nM"}
{"Structure (SMILES)": "COc1ccccc1/C=N/NC(=O)CSc1nc2ccccc2c(=O)n1CCc1ccc(S(N)(=O)=O)cc1", "test": "enzyme activity, inhibitor, stopped-flow", "Ki": "8.9 nM"}
{"Structure (SMILES)": "COc1cc2ccc(=O)oc2cc1OC1OC(COC2OCC(O)(CO)C2O)C(O)C(O)C1O (centres unmarked)", "test": "enzyme activity, inhibitor", "Ki": "77.2 nM"}
{"Structure (SMILES)": "COc1cc(-c2ccnc3nc(Nc4ccc(S(N)(=O)=O)cc4)nn23)cc(OC)c1OC", "test": "enzyme activity, inhibitor, stopped-flow", "Ki": "73.4 nM"}
{"Structure (SMILES)": "COc1cccc(/C=N/NC(=O)CSc2nc3ccccc3c(=O)n2CCc2ccc(S(N)(=O)=O)cc2)c1", "test": "enzyme activity, inhibitor, stopped-flow", "Ki": "23.8 nM"}
{"note": "For quick reference, copied from above:"}
{"Structure (SMILES)": "NS(=O)(=O)c1ccc(N/N=C2\\C(=O)N(CC(=O)Nc3ccccc3Cl)c3ccccc32)cc1", "Ki": "673 nM"}
{"Structure (SMILES)": "COCCOc1cc2ncnc(Nc3cccc(-c4cn(-c5cccc(S(N)(=O)=O)c5)nn4)c3)c2cc1OCCOC", "test": "enzyme activity, inhibitor, stopped-flow", "Ki": "18.1 nM"}
